Results collected from several papers.
Matrix: Caco-2

With N#Cc1ccnc(N2C(=O)CC[C@H]2C(=O)N(c2cc(F)cc(S(N)(=O)=O)c2)[C@H](C(=O)NC2CC(F)(F)C2)c2ccccc2Cl)c1 the Papp A→B was 0.19 ×10⁻⁶ cm/s.
With CCCCC(CC)CNC(=N)NC(=N)NCCC (centres unmarked) the Papp B→A was 6.74 ×10⁻⁶ cm/s (5 µM, 2 h).
The Papp A→B of N#Cc1cccc(-c2ccc(=O)n(Cc3cccc(-c4ncc(OCC5CCN(CC(=O)N6CCN(c7ccc8c(c7)C(=O)N(C7CCC(=O)NC7=O)C8=O)CC6)CC5)cn4)c3)n2)c1 (centres unmarked) is reported as 0.06 ×10⁻⁶ cm/s (2 µM, 2 h, pH 7.4).
For O=C(Nc1ccc(C(F)F)cc1)[C@H](CC1CCCCC1)Nc1nn2c(=O)ccnc2s1, the Papp A→B was 1.67 ×10⁻⁶ cm/s (5 µM, 2 h, pH 7.4).
O=c1[nH]c2ccccc2c(=O)n1O has a Papp A→B of 3.4 ×10⁻⁶ cm/s (10 µM).
CN1CCC[C@@H]1C(=O)N[C@@H](Cc1ccc(-c2ccccc2)cc1)B(O)O has a Papp A→B of 13 ×10⁻⁶ cm/s (5 µM, 1 h).
The Papp A→B of O=c1c(-c2cnn(-c3ccc(Cl)cc3)c2)c(C(F)(F)F)oc2c(O)c(O)ccc12 is reported as 51.2 ×10⁻⁶ cm/s.
N#C/N=C(\N)Nc1cccc(C(=O)NCC(=O)NC[C@H](NC(=O)c2c(Cl)cc(-c3ccccc3)cc2Cl)C(=O)O)c1 has a Papp B→A of 9.1 ×10⁻⁶ cm/s.
The Papp A→B of CCC(CC)CNC(=N)NC(=N)NCCCCCCNC(=N)NC(=N)NCC(CC)CC is reported as 0.27 ×10⁻⁶ cm/s (5 µM, 2 h).
With O=C(CNC(=O)c1cccc(NC2=NCC(F)(F)CN2)c1)NC[C@H](NC(=O)c1c(Cl)cc(-c2ccccc2)cc1Cl)C(=O)O the Papp A→B was 3 ×10⁻⁶ cm/s.
For CNC(=N)NC(=N)NCCCCCCNC(=N)NC(=N)NC, the Papp B→A was 0.37 ×10⁻⁶ cm/s (5 µM, 2 h).
For CS(=O)(=O)c1ccc(-c2cc(Cl)c(C(=O)N[C@@H](CNC(=O)CNC(=O)c3cccc(NC(=N)N)c3)C(=O)O)c(Cl)c2)cc1, the Papp A→B was 0.2 ×10⁻⁶ cm/s.
With N#Cc1ccnc(N2C(=O)CC[C@H]2C(=O)N(c2cncc(F)c2)[C@H](C(=O)NC2CC(F)(F)C2)c2ccccc2Cl)c1 the Papp A→B was 15 ×10⁻⁶ cm/s.
With O=C(CNC(=O)c1cccc(NC2=NCCCO2)c1)NC[C@H](NC(=O)c1c(Cl)cc(-c2ccccc2)cc1Cl)C(=O)O the Papp B→A was 3.4 ×10⁻⁶ cm/s.
With O=c1c(-c2cnn(-c3ccccc3)c2)c(C(F)(F)F)oc2c(O)c(O)ccc12 the Papp B→A was 61.3 ×10⁻⁶ cm/s.
The Papp A→B of CCCCC(CC)CNC(=N)NC(=N)NCCCCCCCCNC(=N)NC(=N)NCC(CC)CCCC (centres unmarked) is reported as < 0.04 ×10⁻⁶ cm/s (5 µM, 2 h).
With O=C(CNC(=O)c1cccc(NC2=NCCCN2)c1)NC[C@H](NC(=O)c1c(Cl)cc(-c2ccccc2)cc1Cl)C(=O)O the Papp A→B was 0.7 ×10⁻⁶ cm/s.

Excerpt of the above:
With N#Cc1ccnc(N2C(=O)CC[C@H]2C(=O)N(c2cc(F)cc(S(N)(=O)=O)c2)[C@H](C(=O)NC2CC(F)(F)C2)c2ccccc2Cl)c1 the Papp A→B was 0.19 ×10⁻⁶ cm/s.
